# Measurements from different studies.
# Parts stem from different laboratories: compare values within a part only. Substitutions count along the parent as printed.

# Block 1
# Target: ABI1, truncated, D143A, DHFR fusion (Arabidopsis thaliana)
# Method: DHFR PCA, deep sequencing
# Sample: yeast
# Notes: methotrexate growth selection, single substitutions
# Added: (+)-ABA 0.0091 µM
# Relative to: wild-type fitted maximum
# Reading: higher = stronger binding
# Parent: PYL1, truncated, DHFR fusion (Arabidopsis thaliana); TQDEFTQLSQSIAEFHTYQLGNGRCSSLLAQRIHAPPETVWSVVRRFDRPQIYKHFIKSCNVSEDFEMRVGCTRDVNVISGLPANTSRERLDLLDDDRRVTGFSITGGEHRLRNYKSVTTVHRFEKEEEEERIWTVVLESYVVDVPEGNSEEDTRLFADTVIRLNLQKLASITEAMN
Substitution,relative binding score [%]
P146T,18
I162F,-0.477
R46D,-1.92
D159P,-6.91
V142C,27
I172N,-1.02
L82Y,45.6
I162G,0.477
R90T,2.9
V136Y,-5.64
R113K,50.1
W134S,47.3
R123T,19.1
F47S,17.1
S59T,10.4

# Block 2
# Target: RNA binding protein fox-1 homolog 2, RRM domain, GST-SBP tag (RBFOX2, Homo sapiens, UniProt O43251-10, residues 100-194)
# Method: RNA Bind-n-Seq
# Molecule type: RNA
# Sample: in vitro
# Concentration: 365 nM
# Notes: natural RNA segment, single round, ends assumed
# Relative to: no-protein control
# Reading: higher = stronger binding
# Constant ends, left off below: GGGAGUUCUACAGUCCGACGAUC … UGGAAUUCUCGGGUGCCAA
# Construct (chain): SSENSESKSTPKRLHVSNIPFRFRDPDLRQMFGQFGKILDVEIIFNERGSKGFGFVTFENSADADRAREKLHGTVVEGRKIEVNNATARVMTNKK
Strand,RBNS enrichment (R)
UAACCUUUUUAGGAAUAUGGAGAUAAAGAUUGUUUUUCUGAUUUUCUUCCAUCUGAAGUUUGACUUUUAUACCCAGCCAGAAGUUACAAAAUGAUGACCCACUCUGGGUA,0.322
GGUGCUGAUGGAGGGAGGGGGAAGUCGAAGGAUGCUCUUUCCCUUUUCUGUUUAGGAAGAAGUGGUACUAGUGUGGUGUGUUUGCUUGGAAAUUCCUUGCCCCACAGUUG,0.523
CAGUCUUAGCUGACUUUUUUUUACUCUGAACUCUUAUUUGAAUUGUUUUUUGUGCAUAUAUUUCUGCUACCACAGAGAUUGUACUAUACAAAUAAAAAAAUAAAAACCCA,0.779
AACCAUAGUGCACAUAUUCCAGGAAAGUGUCUUUAAAAACAAAAACAAACCCUGAAAUGUAUAUUUGGGAUUAUGAUAAGGCAACUAAAGACAUGAAACCUCAGGUAUCC,0.387
CUAGAGCCCAGGAGAUGGGUGUUGCAGUGAGCUGAGACCAUGCCACUGUACUCUAGCCUGGGUAACAGCCAGACCCUGUCUCAAAAAAAAAAACAAUUUUUUUCAUAACA,0.339
AUGAAUAAUCUCUUGUAGGUAACUUUAUUUGAAAAUAAAGAUUUCCUUUUACUUCCAGAAUAACCACAAUGGCUUCUAAAAAGUUCUCAUCUCACACAGCCCUUGUUUUG,0.437
UGAGGCAGGUGGCUGGGGGUGACACCAGGUGACAAGGGGACUCAGUGGCAGGGGGUCACACCAGGCAGAACACCAUACACUCUCCAUCAGCUGUCUGUCUGGAUGUCACU,0.83
CAUAUAAAUUCUGAUUUAAGGUCCUAAAUUCUUAACCUGGAACUGGAGUUGGCAAUACCUAGUUCUGCUUCUGAAACUGGAGUAUCAUUCUUUACAUAUUUAUAUGUAUG,0.347
CAGUAGAUACUGGCGUGUGGAGAUUCACAGACGACCUCAGCACCCAUCCCACCAGGUCCCUGGACUCACGGCCUUUCCUUCAUUUGCCAUUCACAUUGCUGCUCACAAAA,0.37
GGUAGAUUUUAAGAAUGGUCUCAGUGUUAAUACUGAGAAAAAGUCCUGUCAGUUCAGAAAAAAUGUGAAGUCUACUUUAGUAUUCCUGUAAUACUAAACCGUUGAGUUUC,1.81
AAAUCAUAUUCCAUUGUGUCAGUUAACAUAGAGUUUUAAAUGUAUGUAUUAUAAAUACCUGUAACCAAAAUCAUUUGAAGGCUUGAUAAAUUUUUAACAAAGUUUGUACA,0.963
AGGAUUCCGUCUCCUUCAAAGAAGUUUUAUUUUUGGUCCAGAGUACUUGUUUUCCCGAUGUGUCCAGCCAGCUCCGCAGCAGCUUUUCAAAAUGCACUAUGCCUGAUUGC,0.686

# Block 3
# Molecule: PhoQ, residues 284 288 289 292 302 303 SASVAL
# Method: Sort-seq
# Refers to: YFP reporter
# Sample: E. coli
# Notes: PhoQ-PhoP variant library
# Added: 10 µM Mg2+
# Relative to: high Mg2+ state
# Reading: higher = stronger signaling
target,fold induction
"PhoP, residues 12 14 15 18 19 TQCLL (Escherichia coli, UniProt P23836)",15.3
"PhoP, residues 12 14 15 18 19 ICWRQ (Escherichia coli, UniProt P23836)",15.3
"PhoP, residues 12 14 15 18 19 VHTVL (Escherichia coli, UniProt P23836)",20.4

# Block 4
# Target: Interferon regulatory factor 3, full length, phosphomimetic (IRF3, Homo sapiens, UniProt Q14653, residues 1-427, S386D/S396D/S398D/S402D/T404D/S405D)
# Method: protein-binding microarray
# Molecule type: double-stranded DNA, one strand shown
# Sample: in vitro
# Concentration: 2540 nM top
# Notes: 60-bp whole probe
# Added: salmon DNA 0.4 mg/ml
# Relative to: random background probes
# Reading: higher = stronger binding
# Constant ends, left off below: GCCTAGCAC … GTCTTGATTCGCTTGACGCTGCTG
# Construct (chain): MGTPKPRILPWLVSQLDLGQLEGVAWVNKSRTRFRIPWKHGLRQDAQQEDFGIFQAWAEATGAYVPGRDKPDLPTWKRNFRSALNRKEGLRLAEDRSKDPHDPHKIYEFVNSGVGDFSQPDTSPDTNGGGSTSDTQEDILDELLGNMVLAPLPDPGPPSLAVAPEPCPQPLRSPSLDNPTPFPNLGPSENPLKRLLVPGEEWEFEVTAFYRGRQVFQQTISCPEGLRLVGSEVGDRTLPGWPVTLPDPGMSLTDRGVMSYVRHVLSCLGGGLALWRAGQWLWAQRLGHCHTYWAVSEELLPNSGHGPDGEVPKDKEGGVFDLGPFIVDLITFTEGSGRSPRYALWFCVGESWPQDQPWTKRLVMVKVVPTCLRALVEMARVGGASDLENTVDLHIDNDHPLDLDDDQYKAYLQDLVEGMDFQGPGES
Strand,fitted relative affinity
TCCTCTTTCACTGCTCCCCAAGTGCTA,1.87 z-score
GACGGTATCCTTAGCCTGACGTGCTAG,2.24 z-score
TTAGATAACAGTTTCGATTAGTGCTAG,3.22 z-score
TCATGCATCTGATTTCTCACTGTGCTA,-0.122 z-score
TCATTTCTCTTTCACTAACTGTGCTAG,3.78 z-score
GACGATTTCGGGACTAGAGACGTGCTA,1.97 z-score
TTAGTTATCGGACTGGGTTAGTGCTAG,0.502 z-score
TTAGGTCTCGGTATCGGATAGTGCTAG,1.96 z-score
GACGGTTTCGGTCTCGCGACGTGCTAG,8.53 z-score
TTAGATATCAGACTAGATTAGTGCTAG,0.5 z-score
TCAACCATCTCATATAAAACTGTGCTA,0.976 z-score
TTAGATCTCAGTCCCGATTAGTGCTAG,0.134 z-score
CCTGGCTTCATGTTGCTCTCCGTGCTA,-0.927 z-score
TTAGATTTAAGTTCCGATTAGTGCTAG,1.82 z-score
TTAGATCTCCGACTGGATTAGTGCTAG,0.194 z-score
TTAGATATCAGTATCAATTAGTGCTAG,1.33 z-score
TTAGATATCAGTATCGAATAGTGCTAG,1.45 z-score
GACGGTCTACTTATCCTGACGTGCTAG,0.327 z-score
GATGATTTCAGACTGGAGACGTGCTAG,0.348 z-score
TTAGGTATCGGGATTCGGTTAGTGCTA,1.64 z-score
GACGATCTCAGTTTCGGGACGTGCTAG,3.21 z-score
TTAGATCTCAGACTGGGTTAGTGCTAG,-0.234 z-score
TTAGATATGGGGACTGGATTAGTGCTA,-0.627 z-score
